Results collected from several papers.
Protocols differ between the studies behind these lines. Values joined by “and” are separate records of one study, mostly repeats; a detail may differ. Numbers after ± are the reported error.

CCN(CCO)CCCC(C)Nc1ccnc2cc(Cl)ccc12 (centres unmarked)
inhibition (human PBMC; qRT-PCR, measured: IFI44L mRNA; 1000 nM, added: ssRNA): 14 ± 18%

CC1(C)CCC(CN2CCN(c3ccc(C(=O)NS(=O)(=O)c4ccc(NCC5CCOCC5)c([N+](=O)[O-])c4)c(Oc4cnc5[nH]ccc5c4)c3)CC2)=C(c2ccc(Cl)cc2)C1
late apoptotic cells (KCL-22; annexin V/PI flow cytometry, measured: annexin V+/PI+; 3.2 µM, 24 h): 6.2%

CCc1cnc(N2CCC(c3nc(COc4ccc(-n5cnnn5)cc4)cs3)CC2)nc1
normalized enrichment score (HEK-293T; RNA-seq GSEA, measured: HALLMARK_DNA_REPAIR; concentration not given; direction not given): -1.52

Cn1c(Nc2nc3ccc(C(F)(F)F)cc3s2)nc2cc(C(=O)NCCOCCO)ccc21
fold change (SH-SY5Y; RNA-seq, measured: INSYN2B mRNA; 5 µM, 5 h; reference: untreated cells): 4.32

Cc1ccc(NS(=O)(=O)c2cccc(C#N)c2)c2[nH]cc(C#N)c12
PCNA protein level (NKM-1; Western blot; concentration not given, 48 h): no effect

C[C@H]1[C@@H](O)O[C@@H]2O[C@@]3(C)CC[C@H]4[C@H](C)CC[C@@H]1[C@@]24OO3
necrotic cells (KCL-22; annexin V/PI flow cytometry, measured: annexin V-/PI+; 3.2 µM, 24 h): 0%

CS(=O)(=O)N1CCN(Cc2cc3nc(-c4cccc5[nH]ncc45)nc(N4CCOCC4)c3s2)CC1
EC90 (mouse CD4 T-cell blasts; IL-2 driven proliferation, 3H-thymidine uptake): 1.5 µM

CCCCCN1C[C@H](O)[C@@H](O)[C@H](O)[C@@H]1CO
IC50 (Sandhoff disease patient fibroblasts; glycosphingolipid lowering, LC-MS/MS, measured: Gb3 d18:0/22:0): 0.404 µM

Cc1nn(-c2nc3c(F)cc(F)cc3s2)c(O)c1C(c1ccc(C(F)(F)F)cc1)c1c(C)nn(-c2nc3c(F)cc(F)cc3s2)c1O
phospho-TBK1 to TBK1 ratio (RAW-ISG; western blot; 5 µM, added: HT-DNA; reference: DMSO): 0.687 and 0.88

Nc1cccc2c1CN(C1CCC(=O)NC1=O)C2=O (centres unmarked)
viability (bone marrow CD138+ myeloma cells; XTT; 1 µM, mean of three patients): 80%

Cn1cc(Nc2nccc(-c3ccc4c(c3)CN(C3COC3)CC[C@H]4NC(=O)c3cn(C(C)(C)C)nn3)n2)cn1
number of upregulated genes (human B cells; 100 nM, 64 h, non-stimulation-regulated genes, added: CD40L, anti-IgM, IL-21): 126

COc1ccc(-n2nc(C(C)=O)s/c2=N\N=C(/C)c2ccc(NC(=O)c3ccc(C)cc3)cc2)cc1
toxicity (MCF7; 10 µM): 97.1%

COc1ccc(NC(=S)N/N=C/c2cccc3cc4ccccc4nc23)cc1
necrotic cells (HeLa; annexin V/PI flow cytometry; IC12.5, 48 h): 3.23 ± 0.18%

Cc1nc(NC(=O)N2CCC[C@H]2C(N)=O)sc1-c1ccnc(C(C)(C)C(F)(F)F)c1
Hill coefficient GR curve (MFM-223; cell growth, CellTiter-Glo; 120 h): 1.58

Cc1cc(Nc2ncc(Cl)c(Nc3ccccc3S(=O)(=O)C(C)C)n2)c(OC(C)C)cc1C1CCNCC1
log2 fold change (CLB-BAR; phosphoproteomics LC-MS/MS, measured: AP2B1 phosphorylation; 200 nM, 60 min; reference: untreated): -1.53

NC(=O)CCNC(=O)c1ccc([C@H]2[C@@H](F)[C@@H](F)C[C@@H](F)[C@H]2F)cc1
hepatic clearance (liver microsome stability; mouse liver microsomes; 1 µM): 14 mL/min/kg

CC(C)NCC(O)c1ccc(O)c(O)c1 (centres unmarked)
sarcomere length (mouse ventricular cardiomyocytes; dose not given, 0.307 s): 1.8 µm

COCCN(C)C(=O)c1ccc([C@H]2[C@@H](F)[C@@H](F)C[C@@H](F)[C@H]2F)cc1
hepatic clearance (liver microsome stability; mouse liver microsomes; 1 µM): 43 mL/min/kg

Nc1cccc2c1C(=O)N(C1CCC(=O)NC1=O)C2=O (centres unmarked)
surface marker level (RPMI-8226; flow cytometry, measured: CD154; concentration not given; reference: comparator compound alone): 54.2%

Cc1ccc(CNC(=O)Cn2cc(CSc3nc4ccccc4[nH]3)nn2)cc1
cytotoxicity (MDA-MB-231; MTT; 7.81 ppm): 65.2%

Nc1ncnc2c1ncn2[C@@H]1O[C@H](CO)[C@@H](O)[C@H]1O
IFNγ production (activated human T cells; 1 µM; higher = more IFNγ): 469 a.u. and 365 a.u. and 371 a.u.

Cc1n[nH]c(C)c1CSc1ccccc1
selectivity index (U-937; cytotoxicity; reference: IC50 HEK293 over IC50 U-937): 1.3

CCCCCCCCCCCCCCCCCCOc1cccc(CC(=O)OCC[N+]2(C)CCCCC2)c1
mean growth inhibition (NSCLC panel (nine cell lines); 10 µM): 12.5%

Clc1nc(NCc2ccco2)c2[nH]cnc2n1
ΔPSI (iPSC-derived cardiomyocytes; RNA-seq, measured: chr2 exon ending 242095027; unit not given; reference: DMSO minus compound): -0.212

CCn1cc(-c2cc(Cn3ccoc3=N)cc3c2CCN([C@@H](C)c2cc(OC)ccn2)C3=O)c(C(F)(F)F)n1
EC50 (COLO-741; cell growth, inhibitor; 120 h): 0.482 µM

CCCCN1C[C@H](O)[C@@H](O)[C@@H](O)[C@H]1CO
IC50 (sample A patient fibroblasts; GlcCer level lowering, LC-MS/MS, measured: GlcCer d18:1/16:0; 216 h): 15.1 µM

CCNNC(=O)c1ccc(CN(CC(=O)NCc2ccccc2)C(=O)c2ccc(N(C)C)cc2)cc1
apoptotic cells (A2780cisR; flow cytometry, measured: subG1 nuclei; concentration not given): ~60%

Cn1cnc2c(F)c(Nc3ccc(Br)cc3Cl)c(C(=O)NOCCO)cc21
cell growth (SNU-1040; 0.33 µM, 72 h, 100% DMSO; reference: vehicle): 102%

COc1c(C)c(OC(C)=O)c(C)c(O)c1C(=O)/C=C/c1ccccc1
selectivity index (SH-SY5Y; SRB; reference: normal over SH-SY5Y IC50): 1.09

C/C=C/C/C=C/CCC(=O)[C@H]1O[C@H]1C(N)=O
Z score difference (MDA-MB-231, BAX/BAK siRNA knockdown; cell viability, CellTiter-Glo; reference: MDA-MB-231 minus MCF-10A average, direction not given): 77.8

O=C(/C=C/C=C/C=C/C1CCCCC1)NC1=C[C@@](O)(/C=C/C=C/C=C/C(=O)NC2=C(O)CCC2=O)[C@@H]2O[C@@H]2C1=O
GI50 (NCI-H1435; cell growth, CellTiter-Glo; 78 h): 15.7 µM

COc1ccc(-n2nc(C(C)=O)s/c2=N\N=C(/C)c2ccc(NC(=O)c3ccc(Cl)cc3)cc2)cc1
viability (HepG2; 2.5 µM): 5.86%

Cn1cc(-c2ccc(-c3cncc(Cl)c3N3CCC4(CCNC4=O)CC3)cc2)cn1
log2 fold change (COLO 205; gene expression, microarray, measured: LMNA mRNA; concentration not given, 2 h; reference: untreated cells): 1.91

O=c1ccn([C@@H]2O[C@H](CO)[C@@H](O)[C@H]2O)c(=O)[nH]1
T cell proliferation (activated human T cells; human; 316 nM): 38.9% and 22.3% and 48.3% and 23.9% and 38.7%

CSCC[C@H](NC(=O)[C@H](Cc1ccc(OS(=O)(=O)O)cc1)NC(=O)[C@@H](N)CC(=O)O)C(=O)NCC(=O)N[C@@H](Cc1c[nH]c2ccccc12)C(=O)N[C@@H](CCSC)C(=O)N[C@@H](CC(=O)O)C(=O)N[C@@H](Cc1ccccc1)C(N)=O
calcium response (HEK293T control virus; agonist, calcium mobilization; 0.001024 nM, no receptor expressed; higher = more calcium release): 0.098 a.u.

COc1c(C)c(OC(C)=O)c(C)c(OC(C)=O)c1C(=O)/C=C/c1ccccc1
selectivity index (KKU-M213; SRB; reference: normal over KKU-M213 IC50): 0.98

C=CCn1c(=O)c2cnc(Nc3ccc(N4CCN(C)CC4)cc3)nc2n1-c1ccc2c(n1)[C@@](O)(CC)CC2
G1 phase cells (MDA-MB-231; flow cytometry; concentration not given): 33.7%

O=C(C[C@@H](C(F)F)n1ccc(F)n1)N1CCC(O)(Cn2cnc3c(cnn3-c3ccc(F)cc3)c2=O)CC1
necrotic cells (CHP-212 resistant; annexin V/PI flow cytometry; 0.3 µM, 48 h): 4.6% and 4.93% and 3.31%

COc1cc2c(cc1OC)/C(=C/CCCCCCOCc1ccccc1)C=C2C(F)(F)F
Nrf2 stabilization (MM1.S bortezomib-resistant; Western blot; 0.5 µM, 8 h): no effect

COc1cnc2cccc(N3CCc4c(cc(Cn5ccnc5C)cc4-c4cn(C)nc4C(F)(F)F)C3=O)c2c1
EC50 (HMC18; cell growth; 120 h): 21.9 µM

CCOc1cc2ncc(C#N)c(Nc3ccc(F)c(Cl)c3)c2cc1NC(=O)/C=C/CN(C)C
cell growth (SNU-1040; 0.33 µM, 72 h, 100% DMSO; reference: vehicle): 83.3%

CCn1cc(-c2cc(Cn3ccnc3)cc3c2CCN([C@H](c2cc(OC)ccn2)C2CC2)C3=O)c(C(F)(F)F)n1
EC50 (SNU1; cell growth, inhibitor; 120 h): > 30 µM

Nc1ncnc2nc(-c3ccc(N4CCOCC4)nc3)cc(-c3cccc(Br)c3)c12
T cell proliferation (activated human T cells; human; 10 nM): 5.7% and 7.1% and 2.6%

CC/C(=N\NC(=O)NCc1cccc(O)c1)c1ccc(O)c(C)c1O
protein level (SK-OV-3; Western blot, measured: LATS; 10 µM, 1 h, 2D culture, unit not given; reference: β-actin): 1.08 ± 0.62

O=c1[nH]nc(OCCCc2ccc(Cl)cc2)c(NCc2cccnc2)c1Br
log2 fold change (HEK293T; RNA-seq, measured: DNAJB1 mRNA; 10 µM, 6 h; reference: vehicle): -0.574

CCCC(=O)Oc1c(C)c(O)c(C(=O)/C=C/c2ccccc2)c(OC)c1C
selectivity index (SH-SY5Y; SRB; reference: normal over SH-SY5Y IC50): 1.19

CCCCCCCCCCCCCCCCCCOc1cccc(CC(=O)OCC[N+](C)(C)C)c1
mean growth inhibition (NSCLC panel (nine cell lines); 10 µM): 6.55%

A few entries again:
Cn1cc(-c2ccc(-c3cncc(Cl)c3N3CCC4(CCNC4=O)CC3)cc2)cn1
log2 fold change (COLO 205; gene expression, microarray, measured: LMNA mRNA; concentration not given, 2 h; reference: untreated cells): 1.91

O=c1ccn([C@@H]2O[C@H](CO)[C@@H](O)[C@H]2O)c(=O)[nH]1
T cell proliferation (activated human T cells; human; 316 nM): 38.9% and 22.3% and 48.3% and 23.9% and 38.7%

CSCC[C@H](NC(=O)[C@H](Cc1ccc(OS(=O)(=O)O)cc1)NC(=O)[C@@H](N)CC(=O)O)C(=O)NCC(=O)N[C@@H](Cc1c[nH]c2ccccc12)C(=O)N[C@@H](CCSC)C(=O)N[C@@H](CC(=O)O)C(=O)N[C@@H](Cc1ccccc1)C(N)=O
calcium response (HEK293T control virus; agonist, calcium mobilization; 0.001024 nM, no receptor expressed; higher = more calcium release): 0.098 a.u.

COc1c(C)c(OC(C)=O)c(C)c(OC(C)=O)c1C(=O)/C=C/c1ccccc1
selectivity index (KKU-M213; SRB; reference: normal over KKU-M213 IC50): 0.98
